# Published values gathered from unrelated publications.
# A part holds a random share of what one study measured. Changes are numbered by the printed parent chain.

# Sample 1 — target: CCND2, cyclin fold, Cln2 fusion (human); technique: yeast growth competition, sequencing; sample: yeast; notes: weak parent motif; relative to: not given; reading: higher = stronger binding
# Starting sequence: DBF4B docking peptide (human); LGYLYLLLTQSLW
Variant,normalised enrichment score
T9A,-0.0109
S11A,0.123
Q10A,0.246
Y3A,-0.621
Y5A,-0.301
L12A,-0.562
L7A,-0.668

# Sample 2 — target: CRIPT, C-terminal peptide; technique: DHFR complementation, deep sequencing; sample: yeast; relative to: wild type; reading: higher = weaker binding
# Notes: single substitutions, model-inferred values
# Starting sequence: ERBIN, PDZ domain 1 (human); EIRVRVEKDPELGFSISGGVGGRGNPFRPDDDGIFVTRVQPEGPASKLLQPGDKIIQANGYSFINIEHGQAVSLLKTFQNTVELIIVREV; partner TKNYKQTSV
Variant,binding free energy change [kcal/mol]
N59Y,0.634
D32Y,0.616
A71G,0.198
S62A,0.0741
T37N,0.799
Q79A,-0.0114
D53G,0.819
S15W,0.197
V82K,1.63
N80P,0.247
V6H,0.606
I66H,0.336

# Sample 3 — technique: protein binding microarray; form: double-stranded DNA, one strand shown; sample: in vitro; concentration: not given; relative to: not given; reading: higher = stronger binding
# Target: Histone acetyltransferase KAT6A, winged helix 1, GST fusion (KAT6A, Homo sapiens, UniProt Q92794, residues 1-85)
# Notes: 8-mer, flanks averaged, mean of 2 arrays, mostly near background
# Construct (chain): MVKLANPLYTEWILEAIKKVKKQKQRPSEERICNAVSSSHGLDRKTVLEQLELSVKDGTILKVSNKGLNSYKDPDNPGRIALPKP
Sequence,E-score
ATACGGCG,0.386
TGACTAAA,-0.132
ACGCCTTA,0.134
CCCTTGGC,0.00351
GGAGACGA,-0.07
AAGGTGAC,-0.218
ACGTTCGG,0.0663
ATTCCTCA,-0.209
CGCGAGTC,0.229
CTATCTAA,-0.0201
AGTACCGC,0.341
AAGACGTG,-0.0994
ATCAGACA,-0.13
CATCTAAA,-0.219
AGTGGCAT,-0.201
CTGGGTCA,-0.195
TGTAGTAA,-0.0487
AAGTAGGT,-0.0879
ACCGCGTA,0.35
GGAGTTAC,0.0438
TGCGCGCA,0.438
CGACAGAG,-0.045
GCGTGGGA,0.134
GAGCTACC,-0.0369
CCCCTGCC,0.0221

# Sample 4 — technique: RNA Bind-n-Seq; form: RNA; sample: in vitro; concentration: 200 nM; notes: whole 134-nt RNA, ends assumed; together with: 150 mM LiCl; relative to: input library; reading: higher = stronger binding; each molecule: 7-deaza-guanosine replaces G
# Target: Fragile X messenger ribonucleoprotein 1, C-terminal low-complexity region (Fmr1, Mus musculus, UniProt P35922)
# All sequences stand within: GGGAGUUCUACAGUCCGACGAUC … UGGAAUUCUCGGGUGUCAAGG
Sequence,log2 enrichment
CUCAAGUCCUGUGCUACACAUCGUAUGUACCGAAUCGGCCGGGGCCGGGCCGGAAAGUAUUAUGUUACGCCGUUCGGAUCUGCACUUCCA,-0.231
UCCUGUGCUACACAUCGUAUGUACCGAAUCGGGGUUUUUUUGGGGUUUUUGGGGUGGGGAAAGUAUUAUGUUACGCCGUUCGGAUCUGCA,-0.502
UGGGAGGUGGAUUUUGUUUAUUUUUUUAGCUCAUUUCCACGGGUGGGAAUUUUUUUUUAAUAUGUGUCAUGAAUAAAGUUGUUUUUGAAA,0.681
AGUCCUGUGCUACACAUCGUAUGUACCGAAUCGGCCCCGGGGCCCCGGGGCCCCGGGAAAGUAUUAUGUUACGCCGUUCGGAUCUGCACU,-1.87
UUCUCUGCCGGCUCAGAGGAGAGGAGACGCCGUGAGCGGGACGACCAGAUGUACCGAGAGCGGCUGCGCACCUUGCUGGUCAUCGCGGUU,-2.11
UGGCCCUGGUGGCAUGCGGGGAGGAAGAGGUGGCCACAUGGAUCGUGGUGGUCCCGGUGGAAUGUUCAGAGGUGGCCGUGGUGGAGACAG,0.0162
UCCUCAAGUCCUGUGCUACACAUCGUAUGUACCGAAUCGGGCGGCGGGGCGGAAAGUAUUAUGUUACGCCGUUCGGAUCUGCACUUCCAG,-0.302
CAAGUCCUGUGCUACACAUCGUAUGUACCGAAUCGGGGAAAGGGGUGGGGUGGGGAAAGUAUUAUGUUACGCCGUUCGGAUCUGCACUUC,-0.248
UGGGAGGUGGAUUUUGUUUAUUUUUUUAGCUCAUUUCCAGGGGUGGGAAUUUUUUUUUAAUAUGUGUAAUGAAUAAAGUUGUUUUUGAAA,-0.023
UGGGAGGUGGAUUUUGUUUAUUUUUUUAGCUCAUUUCCAGGGGUGGGAAUUUUUUUUUAAUAUGUGUCAUGAAUAAAGUUGUAUUUGAAA,0.262
GUCCUGUGCUACACAUCGUAUGUACCGAAUCGGGGUUUUUGGUUUUUGGUUUUUGGGGAAAGUAUUAUGUUACGCCGUUCGGAUCUGCAC,-1.56

# Sample 5 — target: NFE2, bZIP domain (human); technique: DHFR protein complementation; sample: yeast; relative to: wild-type JUN-FOS pair; reading: higher = stronger binding
# Notes: single substitutions, most at no-binding floor
# Starting sequence: JUN, bZIP domain (human); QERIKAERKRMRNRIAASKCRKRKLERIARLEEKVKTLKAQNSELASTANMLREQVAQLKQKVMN; partner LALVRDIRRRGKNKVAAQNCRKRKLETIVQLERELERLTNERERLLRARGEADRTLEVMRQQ
Variant,binding fitness [natural log]
M51R,-1.39
V56F,-1.44
I28Y,-1.16
S47R,-1.39
V35S,-1.49
L31V,-1.45
A46Y,-1.27
E33V,-1.43
Q41C,-1.5
E54K,-1.19
Q41A,-1.4
A40V,-1.54
A29L,-1.43
A49H,-1.49
L38E,-1.42
N42F,-1.49
L45S,-1.51
Q55W,-1.46
A57L,-1.5
A29C,-1.47
T48R,-1.47
S47A,-1.31
Q58S,-1.3
V35H,-1.46

# Sample 6 — technique: RNA Bind-n-Seq; form: RNA; sample: in vitro; concentration: 365 nM; relative to: no-protein control; reading: higher = stronger binding
# Target: RNA binding protein fox-1 homolog 2, RRM domain, GST-SBP tag (RBFOX2, Homo sapiens, UniProt O43251-10, residues 100-194)
# Notes: natural RNA segment, single round, ends assumed
# All sequences stand within: GGGAGUUCUACAGUCCGACGAUC … UGGAAUUCUCGGGUGCCAA
# Target sequence (chain): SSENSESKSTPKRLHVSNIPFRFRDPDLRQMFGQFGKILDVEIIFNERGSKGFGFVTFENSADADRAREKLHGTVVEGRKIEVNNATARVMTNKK
Sequence,RBNS enrichment (R)
CAGCAAUCACAGCUCAAAUUGUGGACAAUCAAACCAAAGCCUUCAUUUAAGUUUGGCCACAUUUCAAAGAAAAUUGAAGUCCCAGCCUCAGAGAGUGUCGGUGGUUAAAG,0.28
AUUGUAUGUUAAAGCAUCAGAGAUGGUAAUCUACAGCUCACCUCUGAAGGCAAAUAUAAGCUGGGAAAAAAGUUUUGAUGAAAUUCUUGAAGUUCAUGGUGAUCAGUGCA,0.707
AAGGCCUGUUCCCUGGAAGCCCAAAGGACUCUGCAUUGAGGGUGGGGGUAAUUGUCUCUUGGUGGGCCCAGUUAGUGGGCCUUCCUGAGUGUGUGUAUGCGGUCUGUAAC,1.65
AGAAGUCAAGAACUGAGGUUUGGGAACCUCUGCCUAGAUUUCAGAGAAUGUAUGGAAAUGCAUGUAUGUCCAGGCAGAAGUUUGCUACAGGAGUGAGGCCCUCAUGGAGA,7.6
AACUUAAAGGAUAAUAAAAUUUUUAAAGAAAAGAUAUUCUAAUGUACUCUCAAUAAUUCUACAGAAAUAAAACUGUAAAGUGCAAUGUGAAAUCAAAGAUUAUAGUCAUU,0.574
CAUAGUGCUUUGCACAUAGUCGUCACUCAGUGUUUGUUAAUAAAGCUACUAGUGUCAUUAAAACUCUUAGACAGUAUGUGGAUUUUUGUUUUCAGGUUUUUUAAAAAAUU,0.452
UAAACUUCAGCAGAGUCCACUUGUUCUCCCGGAAGCUUAAUGUAAUUGAAUGGCAGUUAUCACUAAAUAAAAUUCUUUUCUGAGUCUCUCCCGAGAGUGGCAGUCCUUUG,0.717
UUUACAGCUCCUUUAAUAAAAUGUGUCAGUAAUUUUAAGGUUUAUAGUUCCCUCAACACAAUUGCUAAUGCAGAAUAGUGUAAAAUGCGCUUCAAGAAUGUUGAUGAUGA,1.13
ACCCUCCUGCUCUGAGAGAAGAAAUCGAACUGAGGCUUCUUCUCUGGAGGUAAGGUUGCUGGUGGCCAGCGUAUGACAUCAAGCAGUGACAGUUUUUCACAUUUUGCUCA,0.291
UUUCGCCAUAUUGGCCAGGCUGGUCUUGAACUCCUGACCUCGUGAUCCACCCGCCUCACCCUCCCAAAAUGCUGGGAUUACAGGCGUAAGCCACUGCACCUGGCGGGGUC,0.268
GAUCUCAUUAAAUGGUGAUUUCUCACUAUGCUCCAGCCCCUCUUAGGUCCUCAUCUCCGUCUUGCAGGUGUUCUGAACUCUCCUUUGGCUAGUCUCUGAUUUUUGAGUCU,0.504
AGAGAAGGUCUCCUCUGUGCUCCAUCCACACAGGAUGCCGGAGAGACAGCCCCUUGUGCUGUGAGCAGAGCAGGCAGUGGCUCUGGAGGCUGCCUGUGGUCUCCUUCCGG,0.463

# Single results of other studies
Molecule,target,assay,test system,setting,how to read,quantity,result
"PhoQ, residues 284 288 289 292 302 303 ALSMDL","PhoP, residues 12 14 15 18 19 VQGLL (Escherichia coli, UniProt P23836)","Sort-seq, measured: YFP reporter",E. coli,"PhoQ-PhoP variant library, together with: 10 µM Mg2+","relative to: high Mg2+ state, higher = stronger signaling",fold induction,5.19

# A few entries again (sample 2):
Variant,binding free energy change [kcal/mol]
S15W,0.197
N59Y,0.634
I66H,0.336
S62A,0.0741
N80P,0.247
Q79A,-0.0114
